Experimental data gathered from unrelated publications.
Protocols differ between the studies behind these lines. ± marks the error that the study gave.
Chain of UniProt O95931 (whole entry, looked up): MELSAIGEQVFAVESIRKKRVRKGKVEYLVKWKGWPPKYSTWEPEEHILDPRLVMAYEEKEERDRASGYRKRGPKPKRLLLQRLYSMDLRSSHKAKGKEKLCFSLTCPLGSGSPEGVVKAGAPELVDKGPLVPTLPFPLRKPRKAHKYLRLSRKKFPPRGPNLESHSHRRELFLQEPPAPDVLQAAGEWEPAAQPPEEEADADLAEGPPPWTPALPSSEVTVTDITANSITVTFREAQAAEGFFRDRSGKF
Chain of UniProt P22607 (whole entry, looked up): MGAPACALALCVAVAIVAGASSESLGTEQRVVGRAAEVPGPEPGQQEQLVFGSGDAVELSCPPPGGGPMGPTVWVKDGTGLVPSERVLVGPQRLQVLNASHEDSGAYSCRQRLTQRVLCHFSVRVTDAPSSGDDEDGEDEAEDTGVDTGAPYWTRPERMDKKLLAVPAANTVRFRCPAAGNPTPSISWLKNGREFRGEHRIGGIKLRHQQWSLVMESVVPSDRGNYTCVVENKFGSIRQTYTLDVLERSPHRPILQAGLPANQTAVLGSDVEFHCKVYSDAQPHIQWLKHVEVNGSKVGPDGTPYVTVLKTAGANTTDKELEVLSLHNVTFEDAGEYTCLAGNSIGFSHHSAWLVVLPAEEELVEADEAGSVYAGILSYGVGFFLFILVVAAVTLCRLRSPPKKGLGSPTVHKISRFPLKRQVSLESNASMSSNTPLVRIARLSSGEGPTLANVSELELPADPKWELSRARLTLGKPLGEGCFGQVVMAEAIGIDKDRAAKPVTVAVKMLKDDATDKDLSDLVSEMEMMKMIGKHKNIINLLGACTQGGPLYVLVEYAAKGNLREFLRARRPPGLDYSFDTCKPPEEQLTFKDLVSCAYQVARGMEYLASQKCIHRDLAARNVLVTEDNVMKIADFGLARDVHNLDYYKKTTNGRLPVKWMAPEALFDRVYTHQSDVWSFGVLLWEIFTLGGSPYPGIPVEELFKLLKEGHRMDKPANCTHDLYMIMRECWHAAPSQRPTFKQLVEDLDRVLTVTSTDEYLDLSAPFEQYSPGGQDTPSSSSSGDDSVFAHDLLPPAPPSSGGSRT
Chain of UniProt Q06830 (whole entry, looked up): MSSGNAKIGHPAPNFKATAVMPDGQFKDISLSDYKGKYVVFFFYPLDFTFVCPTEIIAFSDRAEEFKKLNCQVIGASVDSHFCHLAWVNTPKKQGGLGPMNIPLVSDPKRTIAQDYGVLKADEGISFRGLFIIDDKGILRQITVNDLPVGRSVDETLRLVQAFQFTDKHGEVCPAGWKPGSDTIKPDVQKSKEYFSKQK
Chain of UniProt P27467 (whole entry, looked up): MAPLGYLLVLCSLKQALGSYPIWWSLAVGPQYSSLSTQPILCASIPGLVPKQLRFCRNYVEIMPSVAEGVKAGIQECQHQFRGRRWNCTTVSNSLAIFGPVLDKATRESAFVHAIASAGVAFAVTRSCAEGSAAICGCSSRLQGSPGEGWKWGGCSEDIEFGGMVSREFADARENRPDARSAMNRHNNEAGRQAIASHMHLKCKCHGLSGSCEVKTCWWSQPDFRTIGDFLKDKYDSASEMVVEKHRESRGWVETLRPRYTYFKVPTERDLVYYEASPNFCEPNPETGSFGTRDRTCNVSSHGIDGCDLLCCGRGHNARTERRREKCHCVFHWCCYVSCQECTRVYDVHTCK
Chain of UniProt A0A109QYD3 (whole entry, looked up): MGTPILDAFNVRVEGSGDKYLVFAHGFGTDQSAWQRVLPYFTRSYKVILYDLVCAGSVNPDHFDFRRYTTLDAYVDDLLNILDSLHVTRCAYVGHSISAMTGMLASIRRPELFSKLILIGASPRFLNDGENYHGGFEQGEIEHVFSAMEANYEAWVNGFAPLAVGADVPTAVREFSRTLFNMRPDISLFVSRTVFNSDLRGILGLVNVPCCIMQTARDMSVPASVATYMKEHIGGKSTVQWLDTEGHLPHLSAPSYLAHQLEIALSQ
Chain of UniProt P00691 (whole entry, looked up): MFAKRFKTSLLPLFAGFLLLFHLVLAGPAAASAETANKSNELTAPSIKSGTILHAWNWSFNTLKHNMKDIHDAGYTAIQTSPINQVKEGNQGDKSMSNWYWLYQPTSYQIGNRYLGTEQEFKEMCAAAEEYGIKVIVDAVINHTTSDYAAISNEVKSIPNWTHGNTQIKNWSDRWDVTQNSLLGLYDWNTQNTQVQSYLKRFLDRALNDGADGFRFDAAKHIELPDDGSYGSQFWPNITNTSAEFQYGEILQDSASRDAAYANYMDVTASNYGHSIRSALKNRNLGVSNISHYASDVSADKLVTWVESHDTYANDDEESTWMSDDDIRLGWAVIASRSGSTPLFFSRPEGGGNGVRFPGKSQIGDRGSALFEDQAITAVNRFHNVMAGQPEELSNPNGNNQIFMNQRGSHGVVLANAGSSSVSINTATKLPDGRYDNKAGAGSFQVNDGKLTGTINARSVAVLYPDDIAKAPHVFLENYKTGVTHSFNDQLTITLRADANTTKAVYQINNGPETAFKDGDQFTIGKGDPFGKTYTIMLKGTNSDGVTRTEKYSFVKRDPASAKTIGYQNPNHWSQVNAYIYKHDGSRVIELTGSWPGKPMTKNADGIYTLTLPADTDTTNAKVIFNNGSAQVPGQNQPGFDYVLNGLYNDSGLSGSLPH
Chain of UniProt P93343 (whole entry, looked up): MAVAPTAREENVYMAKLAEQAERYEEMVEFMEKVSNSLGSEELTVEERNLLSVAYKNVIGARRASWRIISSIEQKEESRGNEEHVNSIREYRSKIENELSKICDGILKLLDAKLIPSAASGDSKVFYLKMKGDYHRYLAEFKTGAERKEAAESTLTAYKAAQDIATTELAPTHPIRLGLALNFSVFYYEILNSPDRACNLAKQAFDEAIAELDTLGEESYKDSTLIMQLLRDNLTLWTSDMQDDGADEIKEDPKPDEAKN
Chain of UniProt P0ADV1 (whole entry, looked up): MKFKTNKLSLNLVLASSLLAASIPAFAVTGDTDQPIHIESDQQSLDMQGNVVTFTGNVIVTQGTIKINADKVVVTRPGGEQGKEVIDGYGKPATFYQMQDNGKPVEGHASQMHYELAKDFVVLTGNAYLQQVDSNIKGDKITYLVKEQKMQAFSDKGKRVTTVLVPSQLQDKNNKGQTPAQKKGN
Chain of UniProt Q16548 (whole entry, looked up): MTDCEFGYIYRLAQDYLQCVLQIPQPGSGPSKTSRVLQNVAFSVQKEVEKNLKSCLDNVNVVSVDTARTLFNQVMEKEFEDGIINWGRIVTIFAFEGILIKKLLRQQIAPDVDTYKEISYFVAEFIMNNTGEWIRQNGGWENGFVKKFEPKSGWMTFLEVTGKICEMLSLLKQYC

Structure (SMILES) | target | test | test system | setting | Kd [µM]
CC(C)C[C@H](NC(=O)[C@H](C)NC(=O)[C@H](Cc1ccccc1)NC(=O)CNC(=O)[C@@H](N)CCCNC(=N)N)C(=O)N[C@@H](CCCC[N+](C)(C)C)C(=O)N[C@@H](CO)C(=O)N[C@H](C(=O)N[C@@H](Cc1c[nH]cn1)C(=O)NCC(=O)O)[C@@H](C)O | Chromobox protein homolog 7, chromodomain (Homo sapiens, UniProt O95931) | binding, fluorescence polarization |  | together with: SETDB1 consensus peptide | 5 ± 0.5
CC1=C[C@H](O/C=C2/C(=O)O[C@H]3c4c(ccc(C)c4C)[C@H](O)[C@@H]23)OC1=O (racemic) | RMS3 (Lathyrus oleraceus, UniProt A0A109QYD3) | binding, fluorescence |  |  | 137
CSCC[C@H](NC(C)=O)C(=O)N[C@H](C(=O)N[C@@H](Cc1ccccc1)C(=O)N[C@@H](CC(C)C)C(=O)N[C@@H](CC(=O)O)C(=O)N[C@H](C(=O)N[C@H]1CSCc2cccc(c2)CSC[C@@H](C(=O)N[C@@H](Cc2ccc(O)cc2)C(=O)N[C@H](C(=O)N[C@@H](CO)C(=O)N[C@@H](Cc2ccccc2)C(=O)N[C@@H](CCSC)C(=O)NCC(=O)N[C@@H](CO)C(=O)NCC(=O)N[C@@H](CO)C(=O)NCC(=O)N[C@@H](CO)C(=O)N[C@@H](CC(=O)O)C(=O)N[C@@H](Cc2ccc(O)cc2)C(=O)N[C@@H](CCCCN)C(=O)N[C@@H](CC(=O)O)C(=O)N[C@@H](CC(=O)O)C(=O)N[C@@H](CC(=O)O)C(=O)N[C@@H](CC(=O)O)C(=O)N[C@@H](CCCCN)C(N)=O)C(C)C)NC(=O)[C@H](CCCNC(=N)N)NC(=O)[C@H]([C@@H](C)O)NC1=O)[C@@H](C)O)[C@@H](C)O | FGFR3 (Homo sapiens, UniProt P22607) | binding, BLI |  |  | 0.34
CC[C@H](C)[C@H](NC(=O)[C@H](CCCNC(=N)N)NC(=O)[C@H](CCCNC(=N)N)NC(=O)[C@H](CC(C)C)NC(=O)[C@H](CCC(=O)O)NC(=O)[C@H](CCC(N)=O)NC(=O)[C@H](C)NC(=O)[C@@H](NC(=O)[C@H](CNC(=O)CCl)NC(=O)[C@H](CCCNC(=N)N)NC(=O)[C@H](CCCNC(=N)N)NC(=O)[C@@H]1CCCN1C(=O)[C@H](CCCNC(=N)N)NC(=O)[C@H](CCCNC(=N)N)NC(=O)[C@@H]1CCCN1C(=O)[C@H](CCCNC(=N)N)NC(=O)[C@H](CCCNC(=N)N)NC(=O)[C@@H]1CCCN1C(=O)[C@H](CCCNC(=N)N)NC(=O)[C@H](CCCNC(=N)N)NC(=O)[C@@H]1CCCN1C(=O)[C@H](CCCNC(=N)N)NC(=O)[C@H](CCCNC(=N)N)NC(=O)[C@@H]1CCCN1C(C)=O)[C@@H](C)CC)C(=O)NCC(=O)N[C@@H](CC(=O)O)C(=O)N[C@@H](CCC(=O)O)C(=O)N[C@@H](Cc1ccccc1)C(=O)N[C@@H](CC(N)=O)C(=O)N[C@@H](C)C(=O)N[C@@H](Cc1ccc(O)cc1)C(=O)N[C@@H](Cc1ccc(O)cc1)C(=O)N[C@@H](C)C(=O)N[C@@H](CCCNC(=N)N)C(=O)N[C@@H](CCCNC(=N)N)C(N)=O | Bcl-2-related protein A1 (Homo sapiens, UniProt Q16548) | binding, ITC |  |  | 0.023
CC[C@H](C)[C@H](N)C(=O)N[C@@H](CC(N)=O)C(=O)N[C@@H](CCCCN)C(=O)N[C@@H](CCC(N)=O)C(=O)NCC(=O)N[C@@H](CC(=O)O)C(=O)N[C@H](C(=O)N[C@H](C(=O)N[C@H](C(=O)N[C@@H](CC(C)C)C(=O)N[C@@H](CO)C(=O)N[C@@H](CC(N)=O)C(=O)NCC(=O)N[C@@H](CC(N)=O)C(=O)N[C@H](C(=O)N[C@@H](CCC(N)=O)C(=O)N[C@@H](CC(C)C)C(=O)N[C@H](C(N)=O)[C@@H](C)O)[C@@H](C)O)C(C)C)[C@@H](C)O)C(C)C | Leishmania secreted acid phosphatase | surface plasmon resonance |  | pH 6.5, 25 °C | 0.0156 ± 0.00049
CC(C)C[C@H](NC(=O)CNC(=O)[C@H](CCC(N)=O)NC(=O)CNC(=O)CNC(=O)CNC(=O)CNC(=O)CNC(=O)CNC(=O)CNC(=O)CNC(=O)CNC(=O)CNC(=O)[C@H](CO)NC(=O)[C@H](C)NC(=O)[C@H](CC(C)C)NC(=O)[C@H](CC(=O)O)NC(=O)[C@H](CC(C)C)NC(=O)[C@H](C)NC(=O)[C@H](CC(=O)O)NC(=O)[C@H](C)NC(=O)[C@H](CC(C)C)NC(=O)CNC(=O)[C@H](CCC(N)=O)NC(=O)COCCNC(=S)Nc1ccc2c(c1)C(=O)OC21c2ccc(O)cc2Oc2cc(O)ccc21)C(=O)N[C@@H](C)C(=O)N[C@@H](CC(=O)O)C(=O)N[C@@H](C)C(=O)N[C@@H](CC(C)C)C(=O)N[C@@H](CC(=O)O)C(=O)N[C@@H](CC(C)C)C(=O)N[C@@H](C)C(=O)N[C@@H](CO)C(N)=O | 14-3-3-like protein C (Nicotiana tabacum, UniProt P93343) | binding, fluorescence polarization |  | pH 7.4 | 5.9 ± 0.9
CC(C)C[C@@H]1NC(=O)[C@H](Cc2ccc(O)cc2)NC(=O)[C@H](CCCCN)NC(=O)[C@H](CCCNC(=N)N)NC(=O)[C@@H](Cc2ccc(O)cc2)NC(=O)CSC[C@@H](C(=O)NCC(N)=O)NC(=O)[C@H](Cc2c[nH]c3ccccc23)NC(=O)[C@H](Cc2c[nH]c3ccccc23)NC(=O)[C@H](Cc2ccccc2)NC(=O)[C@H](CCCNC(=N)N)NC(=O)[C@H](CCC(=O)O)NC(=O)[C@H](Cc2ccc(O)cc2)NC1=O | Protein Wnt-3a, with afamin (Mus musculus, UniProt P27467) | binding, SPR single cycle kinetics | immobilised mWnt3a–human afamin complex | 25 °C | 0.171
C#CC[C@H](NC(=O)CNC(=O)[C@H](CO)NC(=O)[C@H](CCCCN)NC(=O)[C@H](C)N(C)C(=O)[C@H](C)NC(=O)[C@@H](NC(=O)[C@@H](NC(=O)[C@H](CCCNC(=N)N)NC(=O)[C@H](Cc1c[nH]cn1)NC(=O)[C@@H]1CCCN1C(=O)[C@H](Cc1c[nH]c2ccccc12)NC(=O)[C@@H](N)CCSC)C(C)C)[C@@H](C)O)C(=O)O | Microtubule-associated protein 1 light chain 3 alpha (Homo sapiens, UniProt Q9H492) | fluorescence polarization |  |  | 0.375 ± 0.157
COc1nc(CC=C(C)CC=CC(C)=CC(C)C(OC2OC(CO)C(O)C(O)C2O)C(C)=CCO)c(C)c(O)c1OC (centres unmarked) | Peroxiredoxin-1 (PRDX1, Homo sapiens, UniProt Q06830) | binding, SPR |  |  | 0.426
CC(C)P(=S)(NP(=[Se])(C(C)C)C(C)C)C(C)C | Alpha-amylase (Bacillus subtilis, UniProt P00691) | fluorescence quenching |  | 310 K | 1490
CC[C@H](C)[C@H](NC(=O)[C@@H](NC(=O)[C@@H]1CCCN1C(=O)[C@@H](NC(=O)[C@@H]1CCCN1C(=O)[C@H](CCCCN)NC(=O)[C@H](CCCCN)NC(=O)[C@H](CO)NC(=O)CNC(=O)CCOCCOCCOCCOCc1cn(CCCNC(=O)CCC2=[N+]3C(=Cc4c(C)cc(C)n4[B-]3(F)F)C=C2)nn1)C(C)C)[C@@H](C)CC)C(=O)N[C@@H](Cc1ccc(O)cc1)C(=O)N[C@H]1CSSC[C@@H](C(=O)N[C@@H](CCC(N)=O)C(=O)N[C@@H](CCCNC(=N)N)C(=O)N[C@@H](CCSC)C(=O)O)NC(=O)[C@H](CCCCN)NC(=O)CNC(=O)[C@H]([C@@H](C)O)NC(=O)[C@H](CCCNC(=N)N)NC(=O)[C@H](CCCNC(=N)N)NC(=O)[C@H](CC(N)=O)NC1=O | lptA (Escherichia coli, UniProt P0ADV1) | binding, FP |  | pH 8 | 0.012
